# Results of several laboratories.
# Every numbered part comes from another study and shows a few of its results, in no order. Positions count from the first letter of the parent shown.

# Series 1
# Target: Histone acetyltransferase KAT6A, winged helix 1, GST fusion (KAT6A, Homo sapiens, UniProt Q92794, residues 1-85)
# Method: protein binding microarray
# Molecule type: double-stranded DNA, one strand shown
# Matrix: in vitro
# Concentration: not given
# Notes: 8-mer, flanks averaged, mean of 2 arrays, mostly near background
# Relative to: not given
# Direction: higher = stronger binding
# Target sequence (chain): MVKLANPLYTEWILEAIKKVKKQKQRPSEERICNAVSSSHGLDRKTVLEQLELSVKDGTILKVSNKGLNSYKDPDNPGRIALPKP
Oligonucleotide,E-score
ATACGCCA,0.0387
TTCTCAAA,-0.238
GCCGCCGA,0.439
AAGGGAGA,-0.229
GCAACGCA,0.0914
CACTCAAA,-0.192
CCGTTGGA,0.107
CCAATCCG,0.0812
ACGGCATG,0.344
GGCCTCGA,-0.0709
CCTCCGTA,0.156
CCTTATCG,0.0423
CACAGTCC,-0.043
CCCTCCTC,-0.32
ATTAAACC,0.0111
ACAGTTTA,-0.14
ACTAGGAA,-0.123
CTTGCGTA,0.0691
AGAAAACA,-0.094
CACCCTCA,-0.191
GACGAAGC,-0.0993
AGTGTTTA,0.00511
ATATTCAG,0.0282
CATCTCGC,0.0913
AGAAAAGG,-0.239

# Series 2
# Target: RNA binding protein fox-1 homolog 2, RRM domain, GST-SBP tag (RBFOX2, Homo sapiens, UniProt O43251-10, residues 100-194)
# Method: RNA Bind-n-Seq
# Molecule type: RNA
# Matrix: in vitro
# Concentration: 365 nM
# Notes: natural RNA segment, single round, ends assumed
# Relative to: no-protein control
# Direction: higher = stronger binding
# All sequences stand within: GGGAGUUCUACAGUCCGACGAUC … UGGAAUUCUCGGGUGCCAA
# Residues (chain): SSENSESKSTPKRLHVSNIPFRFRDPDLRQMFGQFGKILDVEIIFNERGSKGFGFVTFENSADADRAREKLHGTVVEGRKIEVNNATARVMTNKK
Oligonucleotide,RBNS enrichment (R)
GUUUUACAAAAUAAUGAAGCAAUUAGCUAUGUGAUUGAGAGUUAUUGUUUGGGGAUGUGUGUUGUGGUUUUGCUUUUUUUUUUUAGACUGUAUUAAUAAACAUACAACAC,1.51
CCUGCCUCACCCUCCCAAGUAGCUGGGAUUACAGGUGCCCACCUCCACGCCCAGCUAAUUUUUGUAUUUUUAAUAGAGACCGGUUUUGCCAUGUUGGCCAGGCUGGUCUC,0.334
UUUCUAGAAAGUUAGGAUUGGGCAGAUAGUUGAGUCCUAAUCUAUCAAAUCAUUGUUGCCUCUCAUACCAAAAUGUUCUUACCCACUGUCCUUCCCCCUUCUCUGCUUUG,0.671
UUCAUUUACUUCCAAAGAGGCAAAAGCAGCUGGAAUUGGCUUACAGCACAUGCUUUGUUUCAUGUUAUGGGUGAGGACCUACAUACACUCUUACUUUAGCAGUCACUUAA,0.616
UAUUUAGAGAAAAGACUUAAUCAAUUAGUAAAUAAAAUUGCCUAUGGCAGGAUUCUUUCUUGAAUUAAUAUUAAUCCUUAAAUUGAUUUUUCUGGGAUUAUACAAAUUCC,0.521
UUGGCCAUGAUCAACAACAUGCAGCAUGAUGGUGCGUGCACCGUGCGGUCCGUGCACCAUGCCGCCUGUGACCUGCAUCUGCUCCAAGCAGAGACUUUGGCUUUUUGUUU,0.473
GAGUCUAGGAUUCCUUGCCCACUGGCCUUUUGGAAAUGAAGCACCACUGGCCUGAAUAAUUAGCCUUUUCCAGAUCUUCAGUAUCUUCCACAACUACUGCCAUACCCUGU,1.62
CCAUGGAGAUUGUUUUACAAACUUUUGAUGUGGUCAAGUUCAGUUUUAGAAAAGGGAGUCUGUUCCAGAUCAGUGCCAGAACUGUGCCCAGGCCCAAAGGAGACAACUAA,0.277
AUGAUCUGAACAAAAGCUUUUUGAAUUGUAUAAGAUUUAUGUCUACUGUAAACAUUGCUUAAUUUUUUUGCUCUUGAUUUAAAAAAAAGUUUUGUUGAAAGCGCUAUUGA,0.782
GCCUGCUUCUGGCCUGCCUGUGUCUGCUGCCGAGAAGCCCGUGCCCCCGGGAGGGCUGCCGCACUGCCAAAGAGUCUCCCUCCUCCUGGGGAAGGGGCUGCCAACGAACC,2.31
GUCAGAACACGGUUGACCUGCCGCCUUCUUGAACCUGGUGGCCCCCGUUGGAACUAUCAGUGGCGUCUCCCAUGCACACGCCCUCUGCUUUCUCUUUCCUAGACUCGCGG,0.425
UUAUAGACCAACAGAAGAUUCCAAAGAAUUUUCAUGAGAUCAGCUAAGUUGCACCAACUUUGAAGUCUGAUUUUCCUGGACAGUUUUCUGCUUUAAUUUCAUGAAAAGAU,0.392

# Series 3
# Target: ABI1, truncated, D143A, DHFR fusion (Arabidopsis thaliana, UniProt P49597)
# Method: DHFR PCA, dose-response
# Matrix: yeast
# Notes: Hill fit, not affinity, not high confidence
# Added: (+)-ABA, dose series
# Direction: lower = more sensitive
# Starting sequence: PYL1, truncated, DHFR fusion (Arabidopsis thaliana, UniProt Q8VZS8); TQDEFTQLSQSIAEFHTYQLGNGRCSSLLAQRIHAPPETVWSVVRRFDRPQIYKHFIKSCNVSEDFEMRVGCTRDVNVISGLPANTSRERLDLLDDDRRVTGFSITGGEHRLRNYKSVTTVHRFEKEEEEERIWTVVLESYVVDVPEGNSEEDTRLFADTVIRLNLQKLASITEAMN
Variant,ABA EC50 [µM]
P50R,36.3
L82H,230
L91P,2.05
R45P,2.61
S117R,102
F103N,0.169
F47S,0.846
S117D,52.1
T154H,16.7
S140C,1670
F47M,1140
V137R,3.14
D159V,2470
E89H,354

# Series 4
# Target: CCNA2, cyclin fold, Cln2 fusion (human)
# Method: yeast growth competition, sequencing
# Matrix: yeast
# Notes: strong parent motif
# Relative to: not given
# Direction: higher = stronger binding
# Starting sequence: ORC1 docking peptide (human); PRARKRLELGNLG; partner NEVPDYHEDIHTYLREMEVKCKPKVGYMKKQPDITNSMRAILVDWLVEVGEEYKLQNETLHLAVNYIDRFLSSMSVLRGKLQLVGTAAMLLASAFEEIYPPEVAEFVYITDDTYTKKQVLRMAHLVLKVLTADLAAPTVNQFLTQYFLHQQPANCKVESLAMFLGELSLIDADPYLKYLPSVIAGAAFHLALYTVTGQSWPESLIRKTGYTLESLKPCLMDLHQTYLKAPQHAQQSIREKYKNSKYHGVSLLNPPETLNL
Variant,normalised enrichment score
ERARKRLELGNLG [P1E],2.83
PRARKRLELGNRG [L12R],4.06
PRARKRLELGNMG [L12M],5.8
PRAWKRLELGNLG [R4W],1.56
PQARKRLELGNLG [R2Q],3.81
PRARKYLELGNLG [R6Y],1.95
PRARDRLELGNLG [K5D],0.399
PRARKRLELGNLE [G13E],5.62
PRARKRLECGNLG [L9C],1.13
PRARKRLELINLG [G10I],3.11
PRQRKRLELGNLG [A3Q],2.3
PRARKRLENGNLG [L9N],0.708
MRARKRLELGNLG [P1M],3.94
PRARARAELGNLG [K5A L7A],0.518
PRARKRLELGRLG [N11R],4.37
PYARKRLELGNLG [R2Y],2.23
PRACKRLELGNLG [R4C],2.21
PRARKRWELGNLG [L7W],1.05
PRDRKRLELGNLG [A3D],0.152
PRAPKRLELGNLG [R4P],0.344
PRARARLELGNLG [K5A],1.37
PRAYKRLELGNLG [R4Y],1.01
PRARFRLELGNLG [K5F],1.34
PRARKRLEYGNLG [L9Y],6.84
PRERKRLELGNLG [A3E],0.98

# Series 5
# Target: Ras GTPase-activating protein-binding protein 1, C-terminal RGG region (G3BP1, Homo sapiens, UniProt Q13283)
# Sequence of UniProt Q13283 (whole entry, looked up): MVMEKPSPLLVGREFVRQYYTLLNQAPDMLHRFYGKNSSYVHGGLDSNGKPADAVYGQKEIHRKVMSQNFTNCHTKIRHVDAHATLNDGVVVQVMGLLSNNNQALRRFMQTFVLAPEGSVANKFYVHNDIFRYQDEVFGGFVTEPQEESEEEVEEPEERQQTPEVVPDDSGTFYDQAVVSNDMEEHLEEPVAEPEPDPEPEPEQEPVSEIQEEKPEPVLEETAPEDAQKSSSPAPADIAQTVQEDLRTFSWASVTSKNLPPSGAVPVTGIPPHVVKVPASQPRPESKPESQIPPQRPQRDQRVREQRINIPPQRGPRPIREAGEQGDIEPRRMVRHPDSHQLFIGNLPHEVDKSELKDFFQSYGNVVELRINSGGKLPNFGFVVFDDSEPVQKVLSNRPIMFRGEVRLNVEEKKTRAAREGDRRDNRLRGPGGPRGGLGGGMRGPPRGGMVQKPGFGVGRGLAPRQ
# Method: RNA Bind-n-Seq
# Molecule type: RNA
# Matrix: in vitro
# Concentration: 1 µM
# Notes: whole 134-nt RNA, ends assumed
# Added: 150 mM KCl
# Relative to: input library
# Direction: higher = stronger binding
# All sequences stand within: GGGAGUUCUACAGUCCGACGAUC … UGGAAUUCUCGGGUGUCAAGG
Oligonucleotide,log2 enrichment
AGUCCUGUGCUACACAUCGUAUGUACCGAAUCGGGGUUUUGGUUUUGGGUUUUGGGGAAAGUAUUAUGUUACGCCGUUCGGAUCUGCACU,-0.686
UGUGCUACACAUCGUAUGUACCGAAUCGGGGUUUUUUUGGGGAAAAAAAGGGGAAAAAGGGGAAAGUAUUAUGUUACGCCGUUCGGAUCU,0.0101
AAGUCCUGUGCUACACAUCGUAUGUACCGAAUCGGGUUUUUGGGAAAAAGGGUGGGAAAGUAUUAUGUUACGCCGUUCGGAUCUGCACUU,1.06
CCUGUGCUACACAUCGUAUGUACCGAAUCGGGUUUUUUUGGUUUUUUUGGGUUUUUUUGGAAAGUAUUAUGUUACGCCGUUCGGAUCUGC,-1.28
AAGUCCUGUGCUACACAUCGUAUGUACCGAAUCGGGAAAAAGGGUUUUUGGGUGGGAAAGUAUUAUGUUACGCCGUUCGGAUCUGCACUU,0.883
UGGGAGGUGGAUUUUGUUCAUUUUUUUAGCUCAUUUCCAGGGGUGGGAAUUUUUUUUUAAUAUGUGUCAUGAAUAAAGUUGUUUUUGAAA,1.98
UAACUUUAGAGGAGGAUCUGAUGGAUAUGGCAGUGGACGUGGAUUUGGUGAUGGCUAUAAUGGGUAUGGAGGAGGACCUGGAGGUGGCAA,-1.15
CACAGACAACACGCACCCACACAGACACAGAGGGAAGGGGUUGGGAUGGGGACAGGGUGCACAGCAGGGCGGGGUAUGACCCCAGCCCCU,-0.553
ACCAUGCAGGUGGGCGUCUUUGGGAAGUGGGGCAAGGGGGGGAUAGGGAGGGGGGUAACACUUUGGGAACAGGUGGUCCCAGGUCGUUUC,-1.41
ACCAUGCAGGUGGGCAUCUUUGGGAAGUGGGGCAAGGGGGGGAUAGGGAGGGGGGUAACACUUUGGGAACAGGUGGUCCCAGGUCGUUAC,2.15
CUGCGCGCGGAUUUCCCUCUCUGAGGAAGUUUAUCCUUGUGCCUUCUGGAGGAUUUCUCUCUAGCUCGACUCACUCUGGACUGACUCGCU,-0.981
CUGUGCUACACAUCGUAUGUACCGAAUCGGGGCCCCCCCGGGGCCCCCCCGGGCCCCCCCGGAAAGUAUUAUGUUACGCCGUUCGGAUCU,-1.9
GUCCUGUGCUACACAUCGUAUGUACCGAAUCGGGAAAGGGUUUUUUUGGGAAAAAGGGAAAGUAUUAUGUUACGCCGUUCGGAUCUGCAC,-0.61
AGUCCUGUGCUACACAUCGUAUGUACCGAAUCGGGGAAAAGGGAAAAGGGGAAAAGGAAAGUAUUAUGUUACGCCGUUCGGAUCUGCACU,-0.908

# Mixed results
Molecule,target,assay,system,conditions,scale,endpoint,value
"PhoQ, residues 284 288 289 292 302 303 SNSSNI","PhoP, residues 12 14 15 18 19 GQAIL (Escherichia coli, UniProt P23836)","Sort-seq, item: YFP reporter",E. coli,"PhoQ-PhoP variant library, added: 10 µM Mg2+","relative to: high Mg2+ state, higher = stronger signaling",fold induction,6.97
